Published values pooled from the literature.
Every numbered part comes from another study and shows a few of its results, in no order. “And” joins repeats or separate records; there may be more than shown.
UniProt P32298, sequence (whole entry, looked up): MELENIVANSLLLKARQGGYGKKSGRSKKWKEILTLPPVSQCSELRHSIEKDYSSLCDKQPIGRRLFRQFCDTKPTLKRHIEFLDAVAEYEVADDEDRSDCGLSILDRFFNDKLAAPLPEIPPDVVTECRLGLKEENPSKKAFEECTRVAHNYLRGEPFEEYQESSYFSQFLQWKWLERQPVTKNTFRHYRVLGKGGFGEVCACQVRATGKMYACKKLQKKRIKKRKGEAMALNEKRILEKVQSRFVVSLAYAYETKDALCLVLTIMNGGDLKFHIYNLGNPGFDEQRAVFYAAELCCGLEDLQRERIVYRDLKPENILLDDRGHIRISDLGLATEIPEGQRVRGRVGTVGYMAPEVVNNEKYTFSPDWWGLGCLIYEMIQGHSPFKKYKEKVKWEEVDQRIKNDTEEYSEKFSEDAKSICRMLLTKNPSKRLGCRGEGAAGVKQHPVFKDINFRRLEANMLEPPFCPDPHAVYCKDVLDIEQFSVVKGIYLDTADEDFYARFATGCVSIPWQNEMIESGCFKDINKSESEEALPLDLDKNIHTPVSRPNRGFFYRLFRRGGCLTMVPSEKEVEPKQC
UniProt Q6P2M8, sequence (whole entry, looked up): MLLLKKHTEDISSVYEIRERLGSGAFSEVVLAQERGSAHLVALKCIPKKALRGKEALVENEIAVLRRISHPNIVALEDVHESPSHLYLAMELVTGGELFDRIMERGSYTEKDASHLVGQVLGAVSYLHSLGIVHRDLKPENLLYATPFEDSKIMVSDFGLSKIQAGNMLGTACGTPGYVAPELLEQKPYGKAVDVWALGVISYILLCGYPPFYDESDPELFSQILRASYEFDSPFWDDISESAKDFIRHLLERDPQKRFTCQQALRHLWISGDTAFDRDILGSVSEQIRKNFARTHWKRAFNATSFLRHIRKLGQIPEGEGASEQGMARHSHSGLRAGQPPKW
UniProt Q9Y5S2, sequence (whole entry, looked up): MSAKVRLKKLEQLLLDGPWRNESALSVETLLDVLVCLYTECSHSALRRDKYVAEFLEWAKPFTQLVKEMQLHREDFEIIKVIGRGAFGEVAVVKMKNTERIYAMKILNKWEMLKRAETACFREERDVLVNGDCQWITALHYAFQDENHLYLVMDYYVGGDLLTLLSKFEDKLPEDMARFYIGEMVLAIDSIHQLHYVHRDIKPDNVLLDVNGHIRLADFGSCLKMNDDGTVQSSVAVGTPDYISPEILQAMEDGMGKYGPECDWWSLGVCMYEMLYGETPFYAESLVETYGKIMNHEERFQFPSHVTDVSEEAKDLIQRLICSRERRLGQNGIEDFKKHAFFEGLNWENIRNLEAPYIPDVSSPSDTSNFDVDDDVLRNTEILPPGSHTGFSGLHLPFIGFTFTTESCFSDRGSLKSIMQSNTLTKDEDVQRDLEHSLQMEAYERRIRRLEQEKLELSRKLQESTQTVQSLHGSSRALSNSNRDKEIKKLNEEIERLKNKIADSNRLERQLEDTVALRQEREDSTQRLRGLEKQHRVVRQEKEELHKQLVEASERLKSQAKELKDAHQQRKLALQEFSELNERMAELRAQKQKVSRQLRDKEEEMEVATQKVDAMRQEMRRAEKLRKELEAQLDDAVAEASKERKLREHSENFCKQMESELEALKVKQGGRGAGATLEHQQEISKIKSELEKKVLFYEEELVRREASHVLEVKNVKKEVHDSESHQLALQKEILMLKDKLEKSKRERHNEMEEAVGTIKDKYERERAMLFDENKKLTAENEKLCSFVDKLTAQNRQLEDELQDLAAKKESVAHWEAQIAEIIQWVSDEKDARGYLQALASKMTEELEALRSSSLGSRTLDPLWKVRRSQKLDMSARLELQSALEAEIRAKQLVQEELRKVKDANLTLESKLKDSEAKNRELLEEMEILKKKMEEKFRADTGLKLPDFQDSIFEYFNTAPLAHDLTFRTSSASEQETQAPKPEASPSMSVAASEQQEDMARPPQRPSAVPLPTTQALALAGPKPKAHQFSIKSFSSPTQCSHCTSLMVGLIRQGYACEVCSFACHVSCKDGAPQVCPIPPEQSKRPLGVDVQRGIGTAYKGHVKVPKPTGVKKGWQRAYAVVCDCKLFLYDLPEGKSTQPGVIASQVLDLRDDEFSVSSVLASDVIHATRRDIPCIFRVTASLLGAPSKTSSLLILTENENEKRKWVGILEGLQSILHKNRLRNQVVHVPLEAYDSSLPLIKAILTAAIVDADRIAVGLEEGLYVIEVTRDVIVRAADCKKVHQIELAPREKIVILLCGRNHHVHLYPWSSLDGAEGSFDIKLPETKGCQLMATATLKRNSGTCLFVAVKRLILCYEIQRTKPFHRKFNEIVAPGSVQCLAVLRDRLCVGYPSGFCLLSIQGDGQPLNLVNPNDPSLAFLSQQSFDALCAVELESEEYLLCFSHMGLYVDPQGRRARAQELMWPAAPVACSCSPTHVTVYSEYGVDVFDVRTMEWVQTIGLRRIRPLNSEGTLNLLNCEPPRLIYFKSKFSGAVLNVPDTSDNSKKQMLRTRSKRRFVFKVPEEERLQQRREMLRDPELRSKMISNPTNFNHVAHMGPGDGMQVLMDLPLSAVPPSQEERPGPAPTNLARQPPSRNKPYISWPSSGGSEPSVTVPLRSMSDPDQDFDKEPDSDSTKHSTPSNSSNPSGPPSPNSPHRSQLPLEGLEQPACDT
UniProt Q9HAZ1, sequence (whole entry, looked up): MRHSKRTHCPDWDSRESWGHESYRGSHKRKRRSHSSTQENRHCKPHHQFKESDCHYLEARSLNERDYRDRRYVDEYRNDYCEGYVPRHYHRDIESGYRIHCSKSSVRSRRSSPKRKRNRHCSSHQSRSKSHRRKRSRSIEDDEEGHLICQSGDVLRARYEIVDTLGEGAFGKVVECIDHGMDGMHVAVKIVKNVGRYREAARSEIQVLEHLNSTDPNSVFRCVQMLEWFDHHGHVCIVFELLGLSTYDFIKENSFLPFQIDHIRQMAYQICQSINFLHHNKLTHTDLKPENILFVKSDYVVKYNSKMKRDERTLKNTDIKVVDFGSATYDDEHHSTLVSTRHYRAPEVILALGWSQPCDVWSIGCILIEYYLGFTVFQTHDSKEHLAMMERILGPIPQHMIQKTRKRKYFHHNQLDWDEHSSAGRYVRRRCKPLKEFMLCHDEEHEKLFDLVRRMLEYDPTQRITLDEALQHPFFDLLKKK
UniProt P49761, sequence (whole entry, looked up): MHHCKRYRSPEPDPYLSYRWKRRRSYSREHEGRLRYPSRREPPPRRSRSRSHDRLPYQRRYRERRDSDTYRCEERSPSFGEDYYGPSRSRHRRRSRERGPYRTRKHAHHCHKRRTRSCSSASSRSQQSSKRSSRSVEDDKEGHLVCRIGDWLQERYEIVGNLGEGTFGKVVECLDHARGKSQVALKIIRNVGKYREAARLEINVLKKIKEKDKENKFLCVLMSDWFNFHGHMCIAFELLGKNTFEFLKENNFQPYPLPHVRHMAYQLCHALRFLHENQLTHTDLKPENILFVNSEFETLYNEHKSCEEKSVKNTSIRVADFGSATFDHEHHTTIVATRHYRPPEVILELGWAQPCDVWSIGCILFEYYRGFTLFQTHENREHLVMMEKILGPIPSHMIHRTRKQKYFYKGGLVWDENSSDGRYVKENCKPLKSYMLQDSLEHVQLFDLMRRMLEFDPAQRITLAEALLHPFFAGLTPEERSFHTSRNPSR
UniProt Q02750, sequence (whole entry, looked up): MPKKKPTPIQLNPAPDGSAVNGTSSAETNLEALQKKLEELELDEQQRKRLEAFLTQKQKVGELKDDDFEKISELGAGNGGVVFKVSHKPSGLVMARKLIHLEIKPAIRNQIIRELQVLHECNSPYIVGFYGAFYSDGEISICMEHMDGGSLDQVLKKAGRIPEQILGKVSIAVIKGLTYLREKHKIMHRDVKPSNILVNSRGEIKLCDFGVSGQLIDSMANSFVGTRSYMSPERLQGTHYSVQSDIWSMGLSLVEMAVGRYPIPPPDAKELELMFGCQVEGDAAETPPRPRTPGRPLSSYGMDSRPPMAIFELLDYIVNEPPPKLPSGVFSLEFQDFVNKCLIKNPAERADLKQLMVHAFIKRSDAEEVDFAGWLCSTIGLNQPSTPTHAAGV
UniProt P21917, sequence (whole entry, looked up): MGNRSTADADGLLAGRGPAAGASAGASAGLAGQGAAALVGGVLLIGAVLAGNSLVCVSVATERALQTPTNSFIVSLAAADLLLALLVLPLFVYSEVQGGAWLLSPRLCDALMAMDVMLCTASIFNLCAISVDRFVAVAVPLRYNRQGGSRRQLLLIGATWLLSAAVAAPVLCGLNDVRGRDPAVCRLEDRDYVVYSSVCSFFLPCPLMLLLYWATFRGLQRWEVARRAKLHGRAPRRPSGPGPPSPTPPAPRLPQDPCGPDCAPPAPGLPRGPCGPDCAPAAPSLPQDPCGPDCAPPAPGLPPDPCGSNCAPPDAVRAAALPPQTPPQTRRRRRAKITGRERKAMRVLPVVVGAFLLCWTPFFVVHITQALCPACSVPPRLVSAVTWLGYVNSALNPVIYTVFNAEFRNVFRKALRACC
UniProt P41595, sequence (whole entry, looked up): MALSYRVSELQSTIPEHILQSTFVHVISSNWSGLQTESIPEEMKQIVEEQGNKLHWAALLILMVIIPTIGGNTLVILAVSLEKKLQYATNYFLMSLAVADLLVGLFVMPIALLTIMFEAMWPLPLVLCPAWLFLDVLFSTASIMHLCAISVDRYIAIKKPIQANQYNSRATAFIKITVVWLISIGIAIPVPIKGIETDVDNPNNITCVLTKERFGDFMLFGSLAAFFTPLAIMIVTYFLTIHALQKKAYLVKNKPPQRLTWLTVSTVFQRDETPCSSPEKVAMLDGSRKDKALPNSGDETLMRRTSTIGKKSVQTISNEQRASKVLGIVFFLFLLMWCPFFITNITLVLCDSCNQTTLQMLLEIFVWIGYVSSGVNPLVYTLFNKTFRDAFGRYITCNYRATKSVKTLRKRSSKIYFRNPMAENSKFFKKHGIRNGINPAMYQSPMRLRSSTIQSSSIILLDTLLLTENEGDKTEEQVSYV

Set 1 — species: mouse; sample: microsomes or S9; concentration: 2 µM; time: 0.5 h
| Compound | remaining compound |
| --- | --- |
| CC(C)Cc1cc(C(=O)O)c(S(=O)(=O)NC(C)(C)C)s1 | 96.4% |
| Cc1cc(C)c2c(c1)C(NC(=O)c1ncoc1C1CCCO1)CCO2 (centres unmarked) | 1.36% |
| CN1C[C@H](NC(=O)Nc2cccc3ccccc23)C[C@H]1CO | > 99% |
| CC(=O)N(CC(=O)N1CCCN(c2ccc(-c3ccccc3)nn2)CC1)C(C)c1ccccc1 (centres unmarked) | 0.156% |
| Cc1c(Br)cc(S(=O)(=O)Nc2nnn(C)c2C)cc1C(=O)O | > 100% |

Set 2 — cell line: mouse MPNST tumor cells; technique: high-content nuclear imaging; refers to: cell number; concentration: 10 µM; time: 12 h; setting: mean of 2 replicates; reference: plate mean; reading: higher = more cells
| Compound | nuclei count |
| --- | --- |
| Clc1cccc(-c2nnnn2Cc2cccnc2)c1Cl | 1.51 z-score |
| O=C(Nc1cc(C(F)(F)F)cc(C(F)(F)F)c1)Nc1c(Br)cc(Br)cc1-c1nn[nH]n1 | 1.43 z-score |
| CCc1c(C(=O)Nc2cc(S(=O)(=O)N(CC)CC)ccc2O)[nH]c(C)c1C(C)=O | 0.505 z-score |
| CC(C)C(=O)c1c(C(C)C)nn2ccccc12 | 1.37 z-score and 1.59 z-score |
| NCCNS(=O)(=O)c1ccc(Cl)c2ccncc12 | 1.27 z-score |

Set 3 — effect on: binding; technique: radioligand binding; concentration: 10 µM
Compound: CCC(=O)N[C@@H]1CC[C@H](C(=O)N(C)c2ccc(-c3nc4ccccc4o3)cc2)C1
| target | inhibition |
| --- | --- |
| DRD4 (Homo sapiens, UniProt P21917) | 16.4% |
| HTR2B (Homo sapiens, UniProt P41595) | 19.1% |
| ADRA1A (Homo sapiens, UniProt P35348) | 19.5% |

Set 4 — effect on: enzyme activity; mode: inhibitor; concentration: 0.5 µM; reference: control
SMILES: Nc1[nH]nc2nnc(-c3c(-c4ccccc4)nn4ccccc34)cc12
| target | remaining activity |
| --- | --- |
| CLK3 (Homo sapiens, UniProt P49761) | 94.9% |
| MAP2K1 (Homo sapiens, UniProt Q02750) | 94.3% |
| KDR (Homo sapiens, UniProt P35968) | 101% |
| CLK4 (Homo sapiens, UniProt Q9HAZ1) | 101% |
| MAPK14 (Homo sapiens, UniProt Q16539) | 94.6% |
| GRK4 (Homo sapiens, UniProt P32298) | 103% |
| CDC42BPB (Homo sapiens, UniProt Q9Y5S2) | 93.4% |
| ROCK1 (Homo sapiens, UniProt Q13464) | 100% |
| PNCK (Homo sapiens, UniProt Q6P2M8) | 99.6% |
| MAPK11 (Homo sapiens, UniProt Q15759) | 90% |
| TXK (Homo sapiens, UniProt P42681) | 88.8% |
| MET (Homo sapiens, UniProt P08581) | 95% |
| MARK4 (Homo sapiens, UniProt Q96L34) | 105% |
